Measurements from different studies.
Compare with care: the assays were run in different laboratories. “And” joins repeats or separate records; there may be more than shown.
Cell line: NCI-H23

SMILES = CSc1nc(-c2ccc(Cl)cc2)c2c(NC(=O)c3ccccc3)nnc-2[nH]1; test = SRB; setting = 10 µM, NCI60 single-dose screen; scale = reference: untreated; measurement = cell growth; value = 97.2%
SMILES = CCn1cc(-c2cc(Cn3ccoc3=N)cc3c2CCN([C@@H](C)c2cc(OC)ccn2)C3=O)c(C(F)(F)F)n1; test = cell growth, inhibitor; setting = 120 h; measurement = EC50; value = 0.0141 µM
SMILES = CCCCN1CCN(c2ccc3[nH]c(-c4ccc5[nH]c(-c6ccc(OCC)c(OCC)c6)nc5c4)nc3c2)CC1; test = SRB; setting = 10 µM, 48 h; measurement = growth percent; value = -55.9%
SMILES = CCn1cc(-c2cc(Cn3ccnc3)cc3c2CCN([C@H](c2cc(OC)ccn2)C2CC2)C3=O)c(C(F)(F)F)n1; test = cell growth, inhibitor; setting = 120 h; measurement = EC50; value = 11.9 µM
SMILES = CN1CCN(c2ccc3[nH]c(-c4ccc5[nH]c(-c6ccc(C(F)(F)F)cc6)nc5c4)nc3c2)CC1; test = SRB; setting = 10 µM, 48 h; measurement = growth percent; value = 68.2%
SMILES = O=C1NC(c2ccccc2)(c2ccccc2)C(=O)N1Cc1cn(-c2c3ccccc3nc3ccccc23)nn1; test = NCI60 single-dose screen; setting = 10 µM; measurement = growth percentage; value = 85.5%
SMILES = O=C(Nc1nnc2n3c(=S)[nH][nH]c3nc(-c3ccc(Cl)cc3)c1-2)c1ccccc1; test = SRB; setting = 10 µM, NCI60 single-dose screen; scale = reference: untreated; measurement = cell growth; value = 88.5%
SMILES = S=C([S][Au-][P+](CCCCCC[P+]([Au-][S]C(=S)n1cccn1)(c1ccccc1)c1ccccc1)(c1ccccc1)c1ccccc1)n1cccn1; test = cell growth, NCI-60 screen; setting = non-small cell lung cancer; measurement = log10 TGI; value = > -4
SMILES = CCCCN1CCN(c2ccc3[nH]c(-c4ccc5[nH]c(-c6ccc(C(F)(F)F)cc6)nc5c4)nc3c2)CC1; test = SRB; setting = 10 µM, 48 h; measurement = growth percent; value = -85.1%
SMILES = O=c1ccn(Cc2cn(-c3cc4ccccc4oc3=O)nn2)c(=O)[nH]1; test = NCI60 single-dose screen; setting = 10 µM; measurement = growth percentage; value = 99.5%
SMILES = C#C[C@@]1(O)[C@@H](CO)O[C@@H](n2cc(F)c3c(N)ncnc32)[C@@H]1O; test = SRB; setting = NCI-60 screen; measurement = TGI; value = 6.85 µM
SMILES = CCOc1ccc(-c2nc3cc(-c4nc5cc(N6CCN(C)CC6)ccc5[nH]4)ccc3[nH]2)cc1OCC; test = SRB; setting = 10 µM, 48 h; measurement = growth percent; value = -7.66%
SMILES = O=c1ccn(Cc2cn(-c3c4ccccc4nc4ccccc34)nn2)c(=O)[nH]1; test = NCI60 single-dose screen; setting = 10 µM; measurement = growth percentage; value = 94%
SMILES = Cc1cc2c(cc1C)[n+](Cc1ccc3ccccc3c1)cn2Cc1ccc2ccccc2c1.[Br-]; test = NCI60 five-dose screen; measurement = TGI; value = 2.28 µM
SMILES = Cc1cc(C)n(-c2nc(-c3ccc(Cl)cc3)c3c(NC(=O)c4ccccc4)nnc-3[nH]2)n1; test = SRB; setting = 10 µM, NCI60 single-dose screen; scale = reference: untreated; measurement = cell growth; value = 94%
SMILES = O=C(/C=C/C=C/C=C/C1CCCCC1)NC1=C[C@@](O)(/C=C/C=C/C=C/C(=O)NC2=C(O)CCC2=O)[C@@H]2O[C@@H]2C1=O; test = cell growth, CellTiter-Glo; setting = 78 h; measurement = GI50; value = 14 µM
SMILES = COCCOCCOCc1n(Cc2ccc3ccccc3n2)c2ccccc2[n+]1Cc1ccc2ccccc2c1.[Br-]; test = NCI60 five-dose screen; measurement = TGI; value = 10.3 µM
SMILES = CCOC(=O)CSc1nc(-c2ccc(Cl)cc2)c2c(NC(=O)c3ccccc3)nnc-2[nH]1; test = SRB; setting = 10 µM, NCI60 single-dose screen; scale = reference: untreated; measurement = cell growth; value = 94.3%
SMILES = CCCN1CCN(c2ccc3[nH]c(-c4ccc5[nH]c(-c6ccc(OCC)c(OCC)c6)nc5c4)nc3c2)CC1; test = SRB; setting = 10 µM, 48 h; measurement = growth percent; value = -53.3%
SMILES = CCCCc1n(Cc2ccc3ccccc3c2)c2ccccc2[n+]1Cc1ccc2ccccc2c1.[Br-]; test = NCI60 five-dose screen; measurement = TGI; value = 1.7 µM
SMILES = C#C[C@@]1(O)[C@@H](CO)O[C@@H](n2cc(Cl)c3c(N)ncnc32)[C@@H]1O; test = SRB; setting = NCI-60 screen; measurement = TGI; value = 1.28 µM and 0.716 µM
SMILES = O=C(Nc1nnc2n3c(Cc4ccccc4)n[nH]c3nc(-c3ccc(Cl)cc3)c1-2)c1ccccc1; test = SRB; setting = 10 µM, NCI60 single-dose screen; scale = reference: untreated; measurement = cell growth; value = 95%
SMILES = CCCN1CCN(c2ccc3nc(-c4ccc5nc(-c6cc(OC)ccc6OC)[nH]c5c4)[nH]c3c2)CC1; test = SRB; setting = 10 µM, 48 h; measurement = growth percent; value = 103%
SMILES = O=C(Nc1nnc2[nH]c(=S)[nH]c(-c3ccc(Cl)cc3)c1-2)c1ccccc1; test = SRB; setting = 10 µM, NCI60 single-dose screen; scale = reference: untreated; measurement = cell growth; value = 96.9%
SMILES = Cn1cncc1C1=CN(c2ncnc3[nH]cnc23)CCS1; setting = lung cancer; measurement = TGI; value = 85.1 µM

A few entries again:
SMILES = O=C(/C=C/C=C/C=C/C1CCCCC1)NC1=C[C@@](O)(/C=C/C=C/C=C/C(=O)NC2=C(O)CCC2=O)[C@@H]2O[C@@H]2C1=O; test = cell growth, CellTiter-Glo; setting = 78 h; measurement = GI50; value = 14 µM
SMILES = COCCOCCOCc1n(Cc2ccc3ccccc3n2)c2ccccc2[n+]1Cc1ccc2ccccc2c1.[Br-]; test = NCI60 five-dose screen; measurement = TGI; value = 10.3 µM
SMILES = CCOC(=O)CSc1nc(-c2ccc(Cl)cc2)c2c(NC(=O)c3ccccc3)nnc-2[nH]1; test = SRB; setting = 10 µM, NCI60 single-dose screen; scale = reference: untreated; measurement = cell growth; value = 94.3%
SMILES = CCCN1CCN(c2ccc3[nH]c(-c4ccc5[nH]c(-c6ccc(OCC)c(OCC)c6)nc5c4)nc3c2)CC1; test = SRB; setting = 10 µM, 48 h; measurement = growth percent; value = -53.3%
